Published values gathered from unrelated publications.
Lines come from different studies, so protocols differ. Numbers after ± are the reported error.

`Cc1ccc(N2CC3CN(C)CC3C2)cc1C(=O)N[C@H](C)c1cc(-c2cnn(C)c2)nc2ccccc12` (stereo partly drawn) gave a viability of 2.45% (African green monkey cells; 125 µM).
The relative abundance of `COc1ccccc1-c1n[nH]c2nc(N[C@H]3CC[C@H](NS(=O)(=O)CC(C)C)CC3)ncc12` is reported as 0.83 (bead binding, competition bead pull-down, item: LINJ.31.2210; Leishmania donovani extract; 10 µM; baseline: vehicle).
The EC50 of `CC[C@H](C)[C@H](NC(=O)[C@H](CO)NC(=O)[C@H](CC(N)=O)NC(=O)[C@H](CC(C)C)NC(=O)[C@H](Cc1ccc(O)cc1)NC(=O)[C@H](CCCCN)NC(=O)[C@H](CCCCN)NC(=O)[C@@H](NC(=O)[C@H](C)NC(=O)[C@H](CCSC)NC(=O)[C@H](CCC(N)=O)NC(=O)[C@H](CCCCN)NC(=O)[C@H](CCCN=C(N)N)NC(=O)[C@H](CC(C)C)NC(=O)[C@H](CCCN=C(N)N)NC(=O)[C@@H](NC(=O)[C@H](Cc1ccc(O)cc1)NC(=O)[C@H](CC(N)=O)NC(=O)[C@H](CC(=O)O)NC(=O)[C@@H](NC(=O)[C@H](Cc1ccccc1)NC(=O)[C@@H](NC(=O)[C@H](C)NC(=O)[C@H](CC(=O)O)NC(=O)[C@H](CO)NC(=O)[C@@H](N)Cc1c[nH]cn1)C(C)C)[C@@H](C)O)[C@@H](C)O)C(C)C)C(=O)N[C@@H](CC(C)C)C(=O)N[C@@H](CC(N)=O)C(N)=O` is reported as 11.2 nM (Pituitary adenylate cyclase-activating polypeptide type I receptor (ADCYAP1R1, Homo sapiens, UniProt P41586); cAMP production, agonist; COS-7; 37 °C, AUC over 20 min).
For `CCN(CC)C(=O)c1ccc(C(c2cccc(O)c2)N2CC(C)N(Cc3ccccc3)CC2C)cc1` (stereo not drawn), the EC50 was 0.057 nM (Delta-type opioid receptor (OPRD1, Homo sapiens, UniProt P41143, D210N); agonist).
`CC(C)C[C@@H]1NC(=O)[C@H](CC(=O)O)NC(=O)CNC(=O)[C@H](CCCNC(=N)N)NC(=O)[C@H](Cc2ccccc2)NC(=O)[C@H](CCCCNC(=O)CCc2cn(CCCNC(=O)CCC(C(=O)O)N3CCN(CC(=O)O)CCN(CC(=O)O)CCN(CC(=O)O)CC3)nn2)N(C)C(=O)[C@H]2CCCN2C(=O)[C@H](Cc2ccccc2)NC(=O)[C@H](C)NC1=O` (stereo partly drawn) has a tissue-to-tissue ratio of 9.5 ± 8 (female CB17 SCID mice, tumour and adrenals; intravenous, dose not given, 90 min, 177Lu-labelled; baseline: tumour over adrenals).
For `O=C1NC2(CC2)COc2ncc(F)cc2[C@H]2COCCN2c2ccn3ncc1c3n2`, “organ-to-body weight ratio” read 0.18 ± 0.036% (Sprague-Dawley rat, female, thymus; oral, 10 mg/kg/day, 4 weeks, end of treatment).
The EC50 of `CCCCCn1cc(C(=O)c2ccc3ccccc3c2)c2ccccc21` is reported as 129 nM (Cannabinoid receptor 2 (CNR2, Homo sapiens, UniProt P34972, V261L); cAMP, agonist, BRET).
`COc1ccccc1C(C[N+](=O)[O-])c1c(-c2ccccc2)[nH]c2ccccc12` (stereo not drawn) has an EC50 of 360 nM (Cannabinoid receptor 1 (CNR1, Homo sapiens, UniProt P21554, P394A); G protein activation, agonist, BRET).
For `CCN(CC)C(=O)[C@@H]1C=C2c3cccc4c3c(cn4C(=O)c3ccco3)C[C@H]2N(C)C1`, the Ki was > 10000 nM (Alpha-1D adrenergic receptor (ADRA1D, Homo sapiens, UniProt P25100); ligand displacement, radioligand).
With `CCC[C@@H](C(=O)c1ccccc1)N1CCCC1` the Ki was 27 nM (Sodium-dependent dopamine transporter (SLC6A3, Homo sapiens, UniProt Q01959, S149A); transporter uptake, inhibitor, radiometric).
With `CC(C)CC(C(=O)N1CC2(CC1C#N)C(=O)Nc1ccccc12)N(C)C(=O)c1cc2c(F)cc(F)c(F)c2[nH]1` (stereo not drawn) the IC50 was > 100000 nM (Caspase-4 (Casp4, Mus musculus, UniProt P70343); enzyme activity, inhibitor).
`Cc1ccc2c(C(C[N+](=O)[O-])c3cccs3)c(-c3ccccc3)[nH]c2c1` (stereo not drawn) has an EC50 of 170 nM (Cannabinoid receptor 1 (CNR1, Homo sapiens, UniProt P21554, I245M); G protein activation, agonist, BRET).

Repeated from above:
The relative abundance of `COc1ccccc1-c1n[nH]c2nc(N[C@H]3CC[C@H](NS(=O)(=O)CC(C)C)CC3)ncc12` is reported as 0.83 (bead binding, competition bead pull-down, item: LINJ.31.2210; Leishmania donovani extract; 10 µM; baseline: vehicle).
